# Published values from different studies.
# Parts stem from different laboratories: compare values within a part only. Substitutions count along the parent as printed.
# Chain of UniProt P16591 (whole entry, looked up): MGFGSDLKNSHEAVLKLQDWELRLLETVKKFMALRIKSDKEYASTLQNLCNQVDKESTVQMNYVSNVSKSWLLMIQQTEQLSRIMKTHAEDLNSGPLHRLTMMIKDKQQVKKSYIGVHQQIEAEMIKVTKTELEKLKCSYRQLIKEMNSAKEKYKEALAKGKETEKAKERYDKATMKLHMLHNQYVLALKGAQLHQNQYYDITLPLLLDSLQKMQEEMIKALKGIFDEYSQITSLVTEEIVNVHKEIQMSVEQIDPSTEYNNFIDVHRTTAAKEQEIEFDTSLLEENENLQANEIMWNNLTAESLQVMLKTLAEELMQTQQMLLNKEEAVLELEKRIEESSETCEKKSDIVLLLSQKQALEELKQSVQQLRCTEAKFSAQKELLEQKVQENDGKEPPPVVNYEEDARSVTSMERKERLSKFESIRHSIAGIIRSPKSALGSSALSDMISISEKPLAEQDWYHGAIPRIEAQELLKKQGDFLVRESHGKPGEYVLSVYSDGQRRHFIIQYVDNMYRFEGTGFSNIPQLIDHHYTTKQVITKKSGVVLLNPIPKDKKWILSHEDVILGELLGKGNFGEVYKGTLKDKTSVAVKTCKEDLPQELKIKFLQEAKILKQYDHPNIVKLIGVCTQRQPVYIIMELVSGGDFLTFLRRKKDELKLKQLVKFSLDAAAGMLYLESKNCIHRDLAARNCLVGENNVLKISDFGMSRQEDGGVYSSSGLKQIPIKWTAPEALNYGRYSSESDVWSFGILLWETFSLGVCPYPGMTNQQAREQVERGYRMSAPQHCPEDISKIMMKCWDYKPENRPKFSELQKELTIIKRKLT
# Chain of UniProt O94921 (whole entry, looked up): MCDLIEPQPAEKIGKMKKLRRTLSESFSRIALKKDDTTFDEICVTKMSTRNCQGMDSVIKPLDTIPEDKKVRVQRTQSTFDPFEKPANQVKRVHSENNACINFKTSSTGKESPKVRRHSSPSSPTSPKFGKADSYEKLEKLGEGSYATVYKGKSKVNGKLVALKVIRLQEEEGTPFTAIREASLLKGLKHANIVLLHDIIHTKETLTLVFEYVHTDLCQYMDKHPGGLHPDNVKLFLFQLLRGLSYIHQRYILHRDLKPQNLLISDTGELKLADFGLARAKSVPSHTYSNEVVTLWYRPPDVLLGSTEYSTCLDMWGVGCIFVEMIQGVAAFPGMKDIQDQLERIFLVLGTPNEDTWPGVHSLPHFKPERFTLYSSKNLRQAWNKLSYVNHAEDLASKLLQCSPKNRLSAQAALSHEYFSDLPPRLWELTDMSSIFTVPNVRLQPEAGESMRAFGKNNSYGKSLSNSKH
# Chain of UniProt Q8WU08 (whole entry, looked up): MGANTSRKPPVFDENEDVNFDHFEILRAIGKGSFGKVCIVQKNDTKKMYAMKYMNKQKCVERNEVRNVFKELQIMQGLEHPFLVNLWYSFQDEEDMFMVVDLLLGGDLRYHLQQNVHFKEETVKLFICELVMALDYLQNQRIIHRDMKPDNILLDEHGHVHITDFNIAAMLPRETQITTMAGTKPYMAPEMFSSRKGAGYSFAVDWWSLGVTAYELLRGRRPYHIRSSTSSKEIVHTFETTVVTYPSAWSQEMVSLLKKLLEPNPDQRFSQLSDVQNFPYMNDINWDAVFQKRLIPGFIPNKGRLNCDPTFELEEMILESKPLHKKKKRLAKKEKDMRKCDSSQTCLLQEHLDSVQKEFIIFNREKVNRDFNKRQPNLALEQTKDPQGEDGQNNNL
# Chain of UniProt P19525 (whole entry, looked up): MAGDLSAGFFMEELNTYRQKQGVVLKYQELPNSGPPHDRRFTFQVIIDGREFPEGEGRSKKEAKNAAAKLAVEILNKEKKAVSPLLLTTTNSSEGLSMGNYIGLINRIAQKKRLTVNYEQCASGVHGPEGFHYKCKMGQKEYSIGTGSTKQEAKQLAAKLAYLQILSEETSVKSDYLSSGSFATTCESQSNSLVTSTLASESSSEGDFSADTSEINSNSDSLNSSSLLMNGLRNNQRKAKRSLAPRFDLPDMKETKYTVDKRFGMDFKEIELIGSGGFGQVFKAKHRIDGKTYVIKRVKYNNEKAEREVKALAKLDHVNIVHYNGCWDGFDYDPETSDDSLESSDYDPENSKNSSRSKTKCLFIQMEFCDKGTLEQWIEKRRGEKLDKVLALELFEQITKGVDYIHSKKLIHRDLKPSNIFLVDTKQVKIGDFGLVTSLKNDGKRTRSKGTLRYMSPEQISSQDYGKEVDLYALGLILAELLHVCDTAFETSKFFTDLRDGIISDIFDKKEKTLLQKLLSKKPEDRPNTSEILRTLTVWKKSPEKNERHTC
# Chain of UniProt Q86Y07 (whole entry, looked up): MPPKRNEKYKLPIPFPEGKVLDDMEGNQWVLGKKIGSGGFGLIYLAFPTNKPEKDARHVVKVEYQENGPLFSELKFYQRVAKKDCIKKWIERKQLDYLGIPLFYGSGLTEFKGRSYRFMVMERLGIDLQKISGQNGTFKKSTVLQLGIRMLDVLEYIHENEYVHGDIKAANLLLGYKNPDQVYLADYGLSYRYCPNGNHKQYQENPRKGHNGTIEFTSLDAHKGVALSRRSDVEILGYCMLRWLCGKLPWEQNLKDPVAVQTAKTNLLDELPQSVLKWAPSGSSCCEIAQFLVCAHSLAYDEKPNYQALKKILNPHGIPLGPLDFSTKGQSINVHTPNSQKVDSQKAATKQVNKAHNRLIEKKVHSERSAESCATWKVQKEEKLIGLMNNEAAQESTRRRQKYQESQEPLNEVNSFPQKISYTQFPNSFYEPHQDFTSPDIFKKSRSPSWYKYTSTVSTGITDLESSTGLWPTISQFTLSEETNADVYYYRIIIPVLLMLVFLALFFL
# Chain of UniProt O14965 (whole entry, looked up): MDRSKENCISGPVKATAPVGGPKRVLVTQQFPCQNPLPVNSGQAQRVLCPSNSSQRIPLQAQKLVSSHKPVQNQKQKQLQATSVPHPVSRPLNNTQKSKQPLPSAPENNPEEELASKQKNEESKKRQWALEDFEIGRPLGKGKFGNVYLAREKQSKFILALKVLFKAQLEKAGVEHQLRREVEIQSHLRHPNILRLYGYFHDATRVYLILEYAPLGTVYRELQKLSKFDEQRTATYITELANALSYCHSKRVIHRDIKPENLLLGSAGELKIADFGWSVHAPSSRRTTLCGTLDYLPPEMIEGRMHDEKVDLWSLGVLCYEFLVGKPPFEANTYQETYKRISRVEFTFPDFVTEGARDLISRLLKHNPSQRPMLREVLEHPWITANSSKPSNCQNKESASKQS

# Sample 1
# Target: RING finger protein unkempt homolog, zinc fingers 1-6, SBP tag (UNK, Homo sapiens, UniProt Q9C0B0, residues 30-357)
# Chain of UniProt Q9C0B0 (30-357, looked up): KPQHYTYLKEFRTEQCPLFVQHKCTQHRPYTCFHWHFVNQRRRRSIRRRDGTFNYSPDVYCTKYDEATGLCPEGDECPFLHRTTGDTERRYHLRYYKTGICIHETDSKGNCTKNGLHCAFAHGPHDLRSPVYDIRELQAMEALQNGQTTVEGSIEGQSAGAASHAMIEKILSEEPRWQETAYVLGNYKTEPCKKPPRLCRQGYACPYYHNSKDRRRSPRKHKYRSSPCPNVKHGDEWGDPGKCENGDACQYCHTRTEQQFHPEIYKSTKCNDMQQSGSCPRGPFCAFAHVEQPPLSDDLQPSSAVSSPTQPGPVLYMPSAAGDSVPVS
# Method: RNA Bind-n-Seq
# Molecule type: RNA
# Sample: in vitro
# Concentration: 100 nM
# Notes: RNA with constant flanks, vertebrate orthologous sites, ends assumed
# Reference: input RNA pool
# Direction: higher = stronger binding
# All sequences stand within: GGGAGUUCUACAGUCCGACGAUC … CAACAGAGGAUUGAGCAUCA
Strand,bound/input enrichment [ratio]
AACAACCCAAGGGUUCAGGACUGGUUUUACAAAUAUACCAAGUAGAUAUGGAACUAACAAUAGAAUUGGACAACCAAGACCAUGACGUACUGUGAUUUAUUUUUAUGAGGAAUAUGGACU,0.676
GGUCAUUUAUAGCAAUUAGAGUGGGUUGCCCCUCUACUUCUCCCAAGAAGAAAUCCCAAAUAGAUUCCCUUCAUGUCAGAUUAUACUGUUCUGAUUUUAUUUUCUAUUAUUUUUACAUAU,0.909
GGGACGCUUUGAGGUAAAAAUUUUAAUUAAGAGCUGAUCACAAGCACAAAACUUUCCCACUAGCCAUUUAAUAAGUUAAAAAAGAUACACAAACCUACUAGUCUUGAACAAACUGUCAUA,2.58
AUCCCUCAGUGACAGUAUGCCAUCUGUAGCAGAUUCCCACUCUAGUCAUUUCUCUGAAUUUAGUUGUUCUGACUUAGAAAGCAUGAAAACUUCUUGCAGUCAUGGUUCCAGUGAUUAUCA,0.998
GAUUUUCAAUCUCUUCUCCCCUGUCCUGAUUUUAAAAGCCCUUCUUUUUUUUUCUUUUUUUAGGCAUAUGUAGUAAUAUUAGAAACAUUUAAUUUGGGAAACUUUGAUUCUUGAAAGAGA,0.974
GUGAGGGUCUACUGGCCACUCACUGUUAUGUCUGGUAUCUGUAAACACUCUUUUUGUUCUUAGUCUUUUUCUUGUAUAAUUGAUGUUCUUUAAAAUUGUUAAUGUAUAACAGGGCUUAUG,2.43
CAAUUCCAUGGUGGAGGGUUCCGAACUCAAAAAGGUUCGGUCCAACUCUCGAAUUUACCACCGCUAUUUCUUACUGGAUGCCGACAUGCAGAGUCUGAGGUGGGAGCCAUCCAAGAAGGA,0.334
CAGCUGAUUCGCUCAUCGGGAGAGCUGCACAUAUAGCUGUUCUUGAUUCAGAAAUCUUCUUAGAGAAAUUCUUUCUGGUUGCUGCCCUUAAAUAUUUUCAAUAGGAUAAAAACGCUGUUA,0.801

# Sample 2
# Target: Myosin-IIIb (MYO3B, Homo sapiens, UniProt Q8WXR4)
# Chain of UniProt Q8WXR4 (whole entry, looked up): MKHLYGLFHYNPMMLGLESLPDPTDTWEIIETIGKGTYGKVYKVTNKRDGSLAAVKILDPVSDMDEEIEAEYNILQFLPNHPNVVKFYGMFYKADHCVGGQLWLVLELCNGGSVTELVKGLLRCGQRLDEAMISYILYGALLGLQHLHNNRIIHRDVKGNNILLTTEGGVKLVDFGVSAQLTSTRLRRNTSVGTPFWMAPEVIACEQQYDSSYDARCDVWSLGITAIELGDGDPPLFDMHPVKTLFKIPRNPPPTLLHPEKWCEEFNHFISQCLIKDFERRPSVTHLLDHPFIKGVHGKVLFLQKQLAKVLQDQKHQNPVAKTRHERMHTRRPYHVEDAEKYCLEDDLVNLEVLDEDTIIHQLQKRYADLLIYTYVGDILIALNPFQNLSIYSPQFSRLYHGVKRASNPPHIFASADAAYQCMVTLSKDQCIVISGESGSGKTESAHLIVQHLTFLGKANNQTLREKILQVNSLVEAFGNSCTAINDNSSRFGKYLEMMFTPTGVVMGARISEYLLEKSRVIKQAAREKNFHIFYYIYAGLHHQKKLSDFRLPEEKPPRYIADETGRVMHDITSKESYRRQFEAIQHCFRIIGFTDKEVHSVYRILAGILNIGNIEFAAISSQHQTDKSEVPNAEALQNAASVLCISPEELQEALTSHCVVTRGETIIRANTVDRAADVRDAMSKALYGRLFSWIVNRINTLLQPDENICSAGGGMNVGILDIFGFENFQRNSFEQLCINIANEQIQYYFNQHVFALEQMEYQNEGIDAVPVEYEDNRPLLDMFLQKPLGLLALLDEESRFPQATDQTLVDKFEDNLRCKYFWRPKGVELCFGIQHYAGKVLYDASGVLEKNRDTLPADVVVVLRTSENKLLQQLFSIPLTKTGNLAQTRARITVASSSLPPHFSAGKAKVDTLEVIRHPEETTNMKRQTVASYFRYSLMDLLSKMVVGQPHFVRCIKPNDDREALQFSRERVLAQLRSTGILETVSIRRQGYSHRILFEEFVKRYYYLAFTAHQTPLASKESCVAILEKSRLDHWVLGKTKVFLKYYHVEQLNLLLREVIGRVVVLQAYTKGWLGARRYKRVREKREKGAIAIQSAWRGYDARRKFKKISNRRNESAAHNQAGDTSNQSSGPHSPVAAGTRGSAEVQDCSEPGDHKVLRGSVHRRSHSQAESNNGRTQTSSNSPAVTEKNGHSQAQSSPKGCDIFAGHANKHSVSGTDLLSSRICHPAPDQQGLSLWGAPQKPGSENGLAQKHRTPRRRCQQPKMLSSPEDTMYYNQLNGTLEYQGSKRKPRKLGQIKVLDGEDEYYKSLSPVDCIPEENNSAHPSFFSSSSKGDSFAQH
# Effect on: enzyme activity
# Action: inhibitor
# Concentration: 0.5 µM
# Reference: control
Structure (SMILES),remaining activity [%]
Cc1ccc(Nc2nccc(N(C)c3ccc4c(C)n(C)nc4c3)n2)cc1S(N)(=O)=O,83.4
Nc1ncnc2n[nH]c(Nc3ccc(F)cc3)c12,87.9
C#Cc1cccc(Nc2ncnc3cc(OCCOC)c(OCCOC)cc23)c1,84.4
Oc1ccc(-c2nc(-c3ccncc3)c(-c3ccc(F)cc3)[nH]2)cc1,101
CCOC(=O)c1c(C)[nH]c(/C=C2\C(=O)Nc3ccccc32)c1C,74.1
COc1cc2ncnc(Nc3ccc(Oc4ccccc4)cc3)c2cc1OC,103
O=C(CCCc1ccc(-c2ccccc2F)cc1)Nc1ccc(O)cc1,96.3
Cc1nc(-c2ccccc2)c(-c2ccncc2)o1,108
CO[C@H]1C[C@@H]2CC[C@@H](C)[C@@](O)(O2)C(=O)C(=O)N2CCCC[C@H]2C(=O)O[C@H]([C@H](C)C[C@@H]2CC[C@@H](O)[C@H](OC)C2)CC(=O)[C@H](C)/C=C(\C)[C@@H](O)[C@@H](OC)C(=O)[C@H](C)C[C@H](C)/C=C/C=C/C=C/1C,106
COc1cc2ncnc(Nc3ccc(F)c(Cl)c3)c2cc1OCCCN1CCOCC1,91.4
O=C1NC(=O)C(c2cn(CCCn3ccnc3)c3ccccc23)=C1Nc1ccccc1,36
N#CC(C#N)=C(N)/C(C#N)=C/c1ccc(O)cc1,88.1
NCCNc1ncc(C(N)=O)c(Nc2cccc(C(F)(F)F)c2)n1,90.3
Cc1cccc(-c2[nH]c(C(C)(C)C)nc2-c2ccc3c(c2)OCO3)n1,79.2
Cc1ccc(NC(=O)c2ccc(CN3CCN(C)CC3)cc2)cc1Nc1nc(-c2cccnc2)cs1,82.6

# Sample 3
# SMILES: CN([C@@H]1CCc2c(CC(=O)O)c3ccccc3n2C1)S(=O)(=O)c1ccc(F)cc1
# Effect on: cell-free assay
# Method: competition with immobilised ligand
# Concentration: 1 µM
target,remaining binding [%]
"CAMK2B (Homo sapiens, UniProt Q13554)",99
"WNK4 (Homo sapiens, UniProt Q96J92)",100
"PAK1 (Homo sapiens, UniProt Q13153)",96
"Ribosomal protein S6 kinase alpha-3, C-terminal kinase domain (RPS6KA3, Homo sapiens, UniProt P51812)",86
"CDK14 (Homo sapiens, UniProt O94921)",100
"Aurora kinase A (AURKA, Homo sapiens, UniProt O14965)",100
"VRK2 (Homo sapiens, UniProt Q86Y07)",100
"FLT1 (Homo sapiens, UniProt P17948)",100
"IRAK3 (Homo sapiens, UniProt Q9Y616)",100
"EIF2AK2 (Homo sapiens, UniProt P19525)",100
"Tyrosine-protein kinase ABL1, phosphorylated (ABL1, Homo sapiens, UniProt P00519, Y253F)",100
"STK32A (Homo sapiens, UniProt Q8WU08)",100
"FER (Homo sapiens, UniProt P16591)",100
"ALK (Homo sapiens, UniProt Q9UM73, C1156Y)",98

# Sample 4
# Target: ABI1, truncated, D143A, DHFR fusion (Arabidopsis thaliana, UniProt P49597)
# Method: DHFR PCA, dose-response
# Sample: yeast
# Notes: Hill fit, not affinity
# With: (+)-ABA, dose series
# Direction: lower = more sensitive
# Parent: PYL1, truncated, DHFR fusion (Arabidopsis thaliana, UniProt Q8VZS8); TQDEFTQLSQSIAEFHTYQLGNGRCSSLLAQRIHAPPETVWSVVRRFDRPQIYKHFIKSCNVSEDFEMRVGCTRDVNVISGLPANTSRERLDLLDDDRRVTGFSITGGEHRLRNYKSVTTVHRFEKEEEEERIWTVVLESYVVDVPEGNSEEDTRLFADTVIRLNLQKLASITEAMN
Change,ABA EC50
N177T,0.83 µM
G107V,1750 µM
V161I,0.201 µM
V40L,1260 µM
H110P,1.21 µM
K126D,1.29 µM
Q2P,11 µM
N85F,62.7 µM

# Some of these lines once more (sample 2):
Structure (SMILES),remaining activity [%]
NCCNc1ncc(C(N)=O)c(Nc2cccc(C(F)(F)F)c2)n1,90.3
O=C1NC(=O)C(c2cn(CCCn3ccnc3)c3ccccc23)=C1Nc1ccccc1,36
N#CC(C#N)=C(N)/C(C#N)=C/c1ccc(O)cc1,88.1
